Results collected from several papers.
A part holds a random share of what one study measured.
Sequence of UniProt P62344 (whole entry, looked up): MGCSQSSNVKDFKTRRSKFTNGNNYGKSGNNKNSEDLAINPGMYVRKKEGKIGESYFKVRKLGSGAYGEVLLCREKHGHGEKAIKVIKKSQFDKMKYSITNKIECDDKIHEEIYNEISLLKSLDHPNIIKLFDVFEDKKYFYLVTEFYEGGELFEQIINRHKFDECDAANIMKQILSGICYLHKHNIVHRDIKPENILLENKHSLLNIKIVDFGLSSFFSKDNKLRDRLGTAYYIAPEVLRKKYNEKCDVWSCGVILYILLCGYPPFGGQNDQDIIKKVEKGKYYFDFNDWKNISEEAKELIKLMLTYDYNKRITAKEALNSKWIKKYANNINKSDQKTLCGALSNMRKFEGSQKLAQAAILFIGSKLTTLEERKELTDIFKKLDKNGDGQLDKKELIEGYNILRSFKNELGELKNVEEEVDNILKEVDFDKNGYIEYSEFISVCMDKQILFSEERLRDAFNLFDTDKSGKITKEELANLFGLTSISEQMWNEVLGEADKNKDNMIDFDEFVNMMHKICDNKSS
Sequence of UniProt P11229 (whole entry, looked up): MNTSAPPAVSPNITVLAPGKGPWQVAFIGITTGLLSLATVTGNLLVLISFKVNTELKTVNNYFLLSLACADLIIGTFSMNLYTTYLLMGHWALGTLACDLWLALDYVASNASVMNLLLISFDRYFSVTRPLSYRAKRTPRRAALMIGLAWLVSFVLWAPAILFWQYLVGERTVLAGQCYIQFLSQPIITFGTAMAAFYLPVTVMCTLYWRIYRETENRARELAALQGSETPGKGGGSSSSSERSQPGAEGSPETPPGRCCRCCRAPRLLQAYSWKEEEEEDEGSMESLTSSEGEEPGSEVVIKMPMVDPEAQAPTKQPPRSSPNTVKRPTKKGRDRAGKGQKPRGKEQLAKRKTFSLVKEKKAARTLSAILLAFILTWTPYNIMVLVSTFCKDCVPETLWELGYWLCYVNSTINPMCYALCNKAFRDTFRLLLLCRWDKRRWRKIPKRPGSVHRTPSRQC
Sequence of UniProt P28335 (whole entry, looked up): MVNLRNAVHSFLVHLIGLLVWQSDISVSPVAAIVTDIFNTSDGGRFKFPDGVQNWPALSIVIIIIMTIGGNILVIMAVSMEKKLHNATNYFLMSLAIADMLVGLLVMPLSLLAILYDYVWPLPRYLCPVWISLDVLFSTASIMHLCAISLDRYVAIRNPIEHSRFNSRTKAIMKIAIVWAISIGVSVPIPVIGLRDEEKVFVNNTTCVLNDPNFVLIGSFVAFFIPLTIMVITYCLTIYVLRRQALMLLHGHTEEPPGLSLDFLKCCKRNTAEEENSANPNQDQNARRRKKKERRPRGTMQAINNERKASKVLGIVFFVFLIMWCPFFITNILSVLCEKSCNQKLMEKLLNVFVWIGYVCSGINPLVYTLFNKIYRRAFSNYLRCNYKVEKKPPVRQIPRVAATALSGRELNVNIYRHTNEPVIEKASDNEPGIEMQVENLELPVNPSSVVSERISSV

Set 1 — cell line: HEK-293T/ACE2; concentration: concentration not given; time: 16 (unit not given); baseline: vehicle; measurement: viability
CC(=O)CCCCn1c(=O)c2c(ncn2C)n(C)c1=O: 79.8%
CCCCNc1cc(C(=O)O)cc(S(N)(=O)=O)c1Oc1ccccc1: 96.8%
[H]/N=C(/N)N[C@H]1[C@H](O)[C@@H](O)[C@H](O[C@@H]2O[C@@H](C)[C@](O)(C=O)[C@H]2O[C@@H]2O[C@@H](CO)[C@H](O)[C@@H](O)[C@@H]2NC)[C@@H](N/C(N)=N\[H])[C@@H]1O: 98.9%
CC(C)/N=c1\cc2n(-c3ccc(Cl)cc3)c3ccccc3nc-2cc1Nc1ccc(Cl)cc1: 103%
CCCSc1nc(N[C@@H]2C[C@H]2c2ccc(F)c(F)c2)c2nnn([C@@H]3C[C@H](OCCO)[C@@H](O)[C@H]3O)c2n1: 105%
CCOc1nc2cccc(C(=O)OC(C)OC(=O)OC3CCCCC3)c2n1Cc1ccc(-c2ccccc2-c2nnn[nH]2)cc1 (stereo not drawn): 68%
CCOc1ccccc1OCCN[C@H](C)Cc1ccc(OC)c(S(N)(=O)=O)c1: 100%

Set 2 — cell line: HEK-293T-ACE2-TMPRSS2; method: cell count; concentration: 10 µM; measurement: viability
CC(Cc1c[nH]c2ccccc12)NC(=O)Cn1ccc2cc(Br)ccc21 (stereo not drawn): 102%
CC(CNC(=O)C1CCN(C(=O)C2Sc3ccccc3NC2=O)CC1)c1ccccc1 (stereo not drawn): 74%
Cc1cccc(NC(=O)CCC2CCN(C(=O)C3=NN(C)C(=O)CC3)CC2)c1: 111%
O=C(NCC1CCCN(Cc2nc(-c3ccccc3)cs2)C1)c1cccs1 (stereo not drawn): 102%
Cn1ccnc1C(=O)C1CCCN(C(=O)c2cc(COc3ccc(F)c(F)c3)on2)C1 (stereo not drawn): 100%
CCCOC1CCCN(C(=O)CCNC(=O)c2ccc(F)cc2)C1 (stereo not drawn): 65%
CNC(=O)CC1C(=O)NCCN1C(=O)c1cc2ccccc2n1C (stereo not drawn): 74%

Further values, each from its own experiment
CNC(=O)c1cc(C(=O)N[C@H]2[C@@H]3COC[C@@H]32)cc2c1O[C@@H](CF)[C@@H]2c1ccccc1
inhibition (CHRM1 (Homo sapiens, UniProt P11229); binding, radioligand binding; 10 µM): 12.1%

Cc1ccc2cc3c(nc2c1)OCCN(C1CCCC1)C3
remaining compound (human, microsomes or S9; 2 µM, 0.5 h): 5.75%

C[C@@H]1CN(c2cc(-c3nn(C)c4ccc(OC5(C)CC5)cc34)ncn2)C[C@H](C)O1
inhibition (HTR2C (Homo sapiens, UniProt P28335); binding, radioligand binding; 10 µM): 18.7%

CNC(=O)Nc1ccc2c(c1)[C@@]1(CC2)OC(=O)N(CC(=O)N(Cc2ccc(F)cc2)[C@@H](C)C(F)(F)F)C1=O
remaining binding (CDPK1 (Plasmodium falciparum, UniProt P62344); cell-free assay, competition with immobilised ligand; 1 µM): 93%

For quick reference, copied from above (set 1):
CCOc1nc2cccc(C(=O)OC(C)OC(=O)OC3CCCCC3)c2n1Cc1ccc(-c2ccccc2-c2nnn[nH]2)cc1 (stereo not drawn): 68%
